Measured values from different studies.
A part holds a random share of what one study measured.

Block 1
Target: Ras GTPase-activating protein-binding protein 1, C-terminal RGG region (G3BP1, Homo sapiens, UniProt Q13283)
Chain of UniProt Q13283 (whole entry, looked up): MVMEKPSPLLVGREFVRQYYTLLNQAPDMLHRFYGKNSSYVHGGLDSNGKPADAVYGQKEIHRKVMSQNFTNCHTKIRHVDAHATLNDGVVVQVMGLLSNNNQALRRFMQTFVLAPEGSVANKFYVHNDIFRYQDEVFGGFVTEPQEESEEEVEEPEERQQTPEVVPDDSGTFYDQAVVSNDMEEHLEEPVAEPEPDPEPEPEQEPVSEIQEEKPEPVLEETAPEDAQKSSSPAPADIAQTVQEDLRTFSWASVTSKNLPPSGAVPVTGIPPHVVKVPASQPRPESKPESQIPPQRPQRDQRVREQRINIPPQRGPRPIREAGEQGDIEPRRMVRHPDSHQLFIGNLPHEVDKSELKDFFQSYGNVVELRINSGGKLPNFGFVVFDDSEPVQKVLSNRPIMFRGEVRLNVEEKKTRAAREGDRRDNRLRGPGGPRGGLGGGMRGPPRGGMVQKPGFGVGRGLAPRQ
Method: RNA Bind-n-Seq
Form: RNA
Matrix: in vitro
Concentration: 1 µM
Notes: whole 134-nt RNA, ends assumed
Together with: 150 mM KCl
Relative to: input library
Direction: higher = stronger binding
Constant ends, left off below: GGGAGUUCUACAGUCCGACGAUC … UGGAAUUCUCGGGUGUCAAGG
Oligonucleotide | log2 enrichment
CUCAAGUCCUGUGCUACACAUCGUAUGUACCGAAUCGGGUUGGGGUUGGGUUGGAAAGUAUUAUGUUACGCCGUUCGGAUCUGCACUUCC | -0.198
AAGUCCUGUGCUACACAUCGUAUGUACCGAAUCGGGCCCCGGCCCCGGGCCCCGGGGAAAGUAUUAUGUUACGCCGUUCGGAUCUGCACU | -2.17
ACCAUGCAGGUGGGCAUCUUUGGGAAGUGGGGCAAGGGGGGGAUAGCGAGGGGGGUAACACUUUGGGAACAGGUGGUCCCAGGUCGUUUC | 2.1
UGGGAGGUGGAUUUUGUUUAUUUUUUUAGCUCAUUUCCAGGGGUGGGUAUUUUUUUUUAAUAUGUGUCAUGAAUAAAGUUGUUUUUGAAA | 2.89
UAGUAACAGGGGUGAAGAUGCCUUUUGUGAUCCUGAAGAUGAAUGGGAACCCGACAUUACAGAUGCACCAGUUUCUUCACUUUCUAGAAG | -2.18
AAGUCCUGUGCUACACAUCGUAUGUACCGAAUCAAAUUUUUAAACCCAAACCCAAAAAAGUAUUAUGUUACGCCGUUCGGAUCUGCACUU | -0.964
UGGGAGGUGGAUUUUGUUUAUUUUUUUAGCUCAUUUCCAGGGGUGGGAAUUUUUUUUUAAUAUGUGUCAUGCAUAAAGUUGUUUUUGAAA | 3.52
UACAGACAACACGCACCCACACAGACACAGAGGGAAGGGGUUGGGAUGGGGACAGGGUGCACAGCAGGGCGGGGUAGGACCCCAGCCCCU | -0.276

Block 2
Target: Phosphate system positive regulatory protein PHO4, full length, GST-tagged (PHO4, Saccharomyces cerevisiae, UniProt P07270, residues 1-312)
Method: competition protein-binding microarray
Form: double-stranded DNA, one strand shown
Matrix: in vitro
Concentration: 2 µM
Notes: whole 60-bp probe, lowest competitor level
Together with: Cbf1 competitor, 0.05 µM
Direction: higher = stronger binding
Constant ends, left off below: … GTCTTGATTCGCTTGACGCTGCTG
Target sequence (chain): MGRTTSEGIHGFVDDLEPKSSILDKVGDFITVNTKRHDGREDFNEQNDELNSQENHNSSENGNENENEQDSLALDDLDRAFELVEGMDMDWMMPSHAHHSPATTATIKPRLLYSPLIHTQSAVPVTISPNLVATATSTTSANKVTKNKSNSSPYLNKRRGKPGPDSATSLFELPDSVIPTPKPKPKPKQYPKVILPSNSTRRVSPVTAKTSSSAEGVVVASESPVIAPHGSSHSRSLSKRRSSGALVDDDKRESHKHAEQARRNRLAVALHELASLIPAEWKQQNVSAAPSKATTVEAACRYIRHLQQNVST
Oligonucleotide | fluorescence intensity
AAAGCGGTAATTTTTCACGTGGGTTCACATATCTAT | 14900 a.u.
TCGCACCTTTGTGAGCACATGATTCTTTCTGCCGGT | 9430 a.u.
TTTTTCCTAACTTGCGACATGACAGAGCTTAAGGAC | 4560 a.u.
CGTCCTAGTGATTTTCACGTGTTTTCCATGAGGAAG | 13900 a.u.
GAAGTATTTTTTGCGAACGTGGAAGTATTTCACCCA | 10500 a.u.

Block 3
Target: Prothrombin, mature alpha-thrombin (F2, Homo sapiens, UniProt P00734)
Method: aptamer microarray, sandwich
Form: DNA with 2'F-ANA
Matrix: in vitro
Concentration: 200 nM
Notes: whole 15-mer aptamer, many near background
Together with: Cy3 exosite-II aptamer, 400 nM
Direction: higher = stronger binding
Oligonucleotide: GGTTGGTGTGGTTGG
Modification | mean fluorescence intensity
2'F-ANA at 2 3 6 7 8 13 14 15 | 372 a.u.
2'F-ANA at 1 2 3 5 7 9 15 | 62.2 a.u.
2'F-ANA at 2 4 8 9 10 12 14 15 | 74.9 a.u.
2'F-ANA at 1 2 3 4 5 7 10 13 15 | 46.7 a.u.
2'F-ANA at 2 5 6 8 10 11 13 14 | 53.8 a.u.
2'F-ANA at 1 2 3 10 13 | 59.9 a.u.
2'F-ANA at 3 5 6 10 | 65.9 a.u.

Single results of other studies
Substance | target | test | test system | conditions | scale | endpoint | result
PhoQ, residues 284 288 289 292 302 303 ASVMEA | PhoP, residues 12 14 15 18 19 IFFTR (Escherichia coli, UniProt P23836) | Sort-seq, refers to: YFP reporter | E. coli | PhoQ-PhoP variant library, together with: 10 µM Mg2+ | relative to: high Mg2+ state, higher = stronger signaling | fold induction | 15.8
